Experimental data collected from several papers.
Parts stem from different laboratories: compare values within a part only.

Study 1
Target: Centromere-binding protein 1, full length, His-tagged (CBF1, Saccharomyces cerevisiae, UniProt P17106, residues 1-351)
Chain of UniProt P17106 (whole entry, looked up): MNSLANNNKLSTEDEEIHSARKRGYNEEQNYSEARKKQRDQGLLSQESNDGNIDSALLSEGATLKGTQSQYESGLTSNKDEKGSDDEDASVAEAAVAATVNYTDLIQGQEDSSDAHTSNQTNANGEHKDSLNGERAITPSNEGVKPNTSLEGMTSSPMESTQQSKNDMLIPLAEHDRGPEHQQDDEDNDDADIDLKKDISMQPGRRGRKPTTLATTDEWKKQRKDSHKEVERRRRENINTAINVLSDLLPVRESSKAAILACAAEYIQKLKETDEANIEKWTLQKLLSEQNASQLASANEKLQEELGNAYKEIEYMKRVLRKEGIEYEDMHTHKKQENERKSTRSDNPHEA
Technique: competition protein-binding microarray
Molecule type: double-stranded DNA, one strand shown
Medium: in vitro
Concentration: 2 µM
Setting: whole 60-bp probe, lowest competitor level
With: Pho4 competitor, 0.05 µM
Reading: higher = stronger binding
Shared flanks, not repeated: … GTCTTGATTCGCTTGACGCTGCTG
Oligonucleotide | fluorescence intensity [a.u.]
CATTCAATTCCGAGTCACGTGGGTAAATGATAATGG | 12400
CGTATACATAGGCATTGCGTGTTGAAAAATTGTCGG | 85.4
ATAGTTCGTGTACAGGCCGTGATGGTCATCTAATTT | 108
TTCATAGTAAAGTTCCTCGTGAAACTGGTTTCTCAA | 96.8
AAGCCGCCAGGCGTTCTCGTGCGATAAAGTTGCAAA | 81.6
TTGCGGGTATCGTTGCCCGTGTCCTTGTCAATGAAG | 71.3
GTCTTGTCTCATTCGCACGTGTTTTTCCCCACTTCA | 1260
ACATCGACGTTATCGCACGTGTGGATGTGTAAGTGG | 1010
AAGGTTCAAAACAAGCACATGTGTGTTTTGTGACGG | 328
GAGATACAACACCATCACGTTTAAAAGCCTTGTTGG | 218
GTAACCCAGTAACATCAGGTGCACCATCACTACAAA | 153
TGTTGCCACATAATTGAGGCATGTTAGCAGAGCATT | 62.2
CAAGAGTTCGCGGTATACGTGCGGACCTAAACGAGG | 69.1
AAGTTTGCTGAGGACATCGTGACTCGCCGCAAGCTA | 149
AAATTGGATGAAGTTGTTGTGATGCTCAAGAAAGTT | 76
CCGATGGGTCCCAGACACGTGGTGAAACGAGGTGCA | 948
TTCCATTTACACCGTCACGCTTTCCAAACCATCCAG | 253
AAAGCGGTAATTTTTCACGTGCCGTCAAATATCTAT | 1760
CATACCCAACCTTGTGGCGTGGGTGAAGATATTTGT | 59.5
TCCTTATGCAGGTATTCTGTGACAGTAAAGTATAGA | 85.3
CGTCCTAGTGATTTACACGTGTTTTCCATGAGGAAG | 1340

Study 2
Target: UBE2I UBC core domain (UniProt P63279)
Technique: yeast two-hybrid
Medium: yeast
Setting: mostly zero background
Baseline: not given
Reading: higher = stronger interaction
B1: PHF21A RING domain (UniProt Q96BD5); chain SPTSTDGDIHEDFCSVCRKSGQLLMCDTCSRVYHLDCLDPPLKTIPKGMWICPRCQDQMLKKEEAIPW
B2: TRIM8 RING domain (UniProt Q9BZR9); chain WKNCFEEELICPICLHVFVEPVQLPCKHNFCRGCIGEAWAKDSGLVRCPECNQAYNQKPGLE
B3: IRF2BPL RING domain (UniProt Q9H1B7); chain SPMANSGPLCCTICHERLEDTHFVQCPSVPSHKFCFPCSRESIKAQGATGEVYCPSGEKCPLVGSNVP
B4: UHRF2 RING domain (UniProt Q96PU4); chain CGGDPEKKCHSCSCRVCGGKHEPNMQLLCDECNVAYHIYCLNPPLDKVPEEEYWYCPSCKTDSSEVVKAGER
B5: RNF170 RING domain (UniProt Q96K19); chain TRQQFYTDMYCPICLHQASFPVETNCGHLFCGACIIAYWRYGSWLGAISCPICRQTVTLLLTVF
Sequence | lacZ reporter activity
QLQDIKEQTMCPVCLDRLKNMIFLCGHGTCQLCGDRMSECPICRKAIERRILLY (MIB1 RING domain (UniProt Q86YT6)) | 0
RLTMMWEEVTCPICLDPFVEPVSIECGHSFCQECISQVGKGGGSVCPVCRQRFLLKNLRP (TRIM21 RING domain (UniProt P19474)) | 0
B1 (PHF21A RING domain) | 0
B2 (TRIM8 RING domain) | 0
B3 (IRF2BPL RING domain) | 0
B4 (UHRF2 RING domain) | 0
B5 (RNF170 RING domain) | 0
PEELQAMDNVCIICREEMVTGAKRLPCNHIFHTSCLRSWFQRQQTCPTCRMDVLRASLPA (SYVN1 RING domain (UniProt Q86TM6)) | 0
YWAMDSTFELCKICAESNKDVKIEPCGHLLCSCCLAAWQHSDSQTCPFCRCEIKGWEAVS (CBLC RING domain (UniProt Q9ULV8)) | 0

Study 3
Target: Interferon regulatory factor 5, full length, phosphomimetic (IRF5, Homo sapiens, UniProt Q13568-2, residues 1-514, K96S/S451D/S453D/S456D/S462D)
Technique: protein-binding microarray
Molecule type: double-stranded DNA, one strand shown
Medium: in vitro
Concentration: 250 nM
Setting: 60-bp whole probe
With: salmon DNA 0.4 mg/ml
Baseline: random background probes
Reading: higher = stronger binding
Shared flanks, not repeated: GCCTAGCAC … GTCTTGATTCGCTTGACGCTGCTG
Oligonucleotide | log fluorescence [z-score]
TTAGATCTCCGTTTCGATTAGTGCTAG | 7.3
TTAGGTTTCGCTCTCGGTTAGTGCTAG | 7.78
TCATTTTTGCTTTCCTTACTGTGCTAG | 2.04
TTAGAACTGAGTTTAGATTAGTGCTAG | -0.13
TACGGTCTCGGTCTCGGGACGTGCTAG | 0.243
GACGAAATCGGGTTTCGAGACGTGCTA | 2.84
GACTGTATCGGGTTTCGGGACGTGCTA | 4.35
TCAGTGTTCTTTTCTGTTACTGTGCTA | 1.47
GAAGATTTCGGGTATCGAGACGTGCTA | 4.84
GACGGTATCGACTATCGGGAAGTGCTA | 4.5
TTTAAATTCTAATTAGAATTGTGCTAG | 0.514
TCAGTTGTAGGTTTTCTGACTGTGCTA | 0.273
TCAGTTACCCACCTCAGACTGTGCTAG | -0.0146
GACGGTATCGACTTTCGGGAGGTGCTA | 6.29
GACGGCCTCGGTTTCGGGACGTGCTAG | 2.11
GGCAAAAACATGAACAGACAGTGCTAG | -0.269
GACGGACTGCTACGGCTGACGTGCTAG | -0.345
ACCACTTTTATTTTCAGTATGTGCTAG | 3.86
GACGGTTTCGGTATCGGGATGTGCTAG | 10.2
TTCTAAACCATTTTGGTTTTGTGCTAG | 0.748
TTAGATCTCAGTATCGATTAGTGCTAG | 6.68

Study 4
Target: RING finger protein unkempt homolog, zinc fingers 1-6, GST-SBP tag (UNK, Homo sapiens, UniProt Q9C0B0, residues 30-357)
Chain of UniProt Q9C0B0 (30-357, looked up): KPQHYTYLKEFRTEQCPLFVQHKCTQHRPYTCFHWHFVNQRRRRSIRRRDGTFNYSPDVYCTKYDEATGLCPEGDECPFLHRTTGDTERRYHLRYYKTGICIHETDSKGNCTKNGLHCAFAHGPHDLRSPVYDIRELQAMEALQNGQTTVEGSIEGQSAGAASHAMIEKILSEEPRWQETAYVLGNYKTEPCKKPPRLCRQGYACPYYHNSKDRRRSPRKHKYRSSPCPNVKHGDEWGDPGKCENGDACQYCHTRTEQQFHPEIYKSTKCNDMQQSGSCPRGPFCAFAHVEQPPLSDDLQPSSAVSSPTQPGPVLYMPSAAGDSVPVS
Technique: RNA Bind-n-Seq
Molecule type: RNA
Medium: in vitro
Concentration: not given
Setting: RNA with constant flanks, ends assumed
Baseline: input RNA pool
Reading: higher = stronger binding
Shared flanks, not repeated: GGGAGUUCUACAGUCCGACGAUC … CAACAGAGGAUUGAGCAUCA
Oligonucleotide | bound/input enrichment [ratio]
UGGCGUUUCAGCAACAUGAAACAGUGGAAUGUCAACUGGGAAAUCAAAAUGGUCACCGCCGAGUUUGCAGAUGAAGUACGAUUGUCCUUCAUUUGUACUGAAGUAGAUUGCAAAGUGGUU | 0.26
GUGUUGGUACAGAGUGCUCUGUACCAGUGCUCAUCAUCCCUUCUUCAUACCAACGGUCCCCCGUUACCGGAAUUUAAUAUUUUUAAAAGUUUUACAUUGCUGUAUAUUCAAAGAUUUGUU | 1.7
CAUUGGAGACUGAGCAAAAGGAAAUGUGAAACGAAUAACAUGAUGGAAUAUGUCAUCCUCACCGAAUUUUUACCAAAGACACCGAUUUUUCGACCAGAUUAGCAUUUACUUUAUUUAUAG | 19.5
AAUCAGGCAAAGAAAGGGGGUGUAAGUUGUGGGACCAGUUUUAGAGGGACAGUUGGACGGACCCGAGAUUACACUGUUUUACAUCCAUCUUGCUUGUCAGUUUGUAAUGUUACCAUACAG | 0.467
UGCUUGGUGCUGAUUUGUGAACCCAUUCCUCACCCAUCAAAUAUUGAAAUUCCUUCCGACCGCAAGACUUUCCUCAGUCGACACAGCCUGGAUAUGAAAUUUUCUUAUUGUGAUGAAAGA | 0.211
UGGCAUACAGACCAGUUUUAGGACUGGUAAUCCAACAGGGACUUACCAGAACGGUUAUGACCGCACUCAGCAAUAUGGAAGUAAUGUUGCAAAUAUGCACAAUGGUAUGAACCAACAGGC | 0.107
ACAGAGCCCCCCUACACAGCAUACGUAGGAAAUCUACCUUUCAAUACGGUUCAGGGCGACACCGAUGCUAUCUUUAAGGAUCUCAGCAUAAGGAGUGUACGGCUAGUCAGAGACAAAGAC | 0.224
CCGCGGCUUGCCGGAAGUGGGCAGGGCGGCAGCGGCUGCUCUUGGCGGCCCCGAGGUGACUACCGCCUUCUUUUGUGUCUUGAUAGUUCGCCAUGGAUGACGAUAUCGCUGCGCUGGUCG | 0.122
UAAGAUUUUGUUUUUUCACUUACAGGCUAUAAAAGAGCAGUACAGGGCCCAGCCCAGCUCCUCCGCCCGCGAAUUGCGAUGGAAUGACAUAGCUGUGGCAAAACUAAGCGGCCGCUGCUC | 0.296
CAGGUAUUUAUAGUGAAUCAUACUGUAAAAAAGAGGUAGCAUGAUAUGCUGGAAAGCAUAUCCGACCCGGAGUCAAGACCUGGUUUCUAGUCUUGGUUUUGCCAUUAAUGUGCUGCAUGA | 0.214
UACAAUGUAUUUGUGUAAUUUAUAGAAGUAAAAUCUAGAUGUUGAGACCUGUUUGGUCUAACCGAUGUGGAUACAGUUUAUUUUACUUGAAAUUUUGUUGUCUACUUUGUGUGUUUAACG | 0.658

Some of these lines once more (study 4):
Oligonucleotide | bound/input enrichment [ratio]
CAGGUAUUUAUAGUGAAUCAUACUGUAAAAAAGAGGUAGCAUGAUAUGCUGGAAAGCAUAUCCGACCCGGAGUCAAGACCUGGUUUCUAGUCUUGGUUUUGCCAUUAAUGUGCUGCAUGA | 0.214
UGCUUGGUGCUGAUUUGUGAACCCAUUCCUCACCCAUCAAAUAUUGAAAUUCCUUCCGACCGCAAGACUUUCCUCAGUCGACACAGCCUGGAUAUGAAAUUUUCUUAUUGUGAUGAAAGA | 0.211
UAAGAUUUUGUUUUUUCACUUACAGGCUAUAAAAGAGCAGUACAGGGCCCAGCCCAGCUCCUCCGCCCGCGAAUUGCGAUGGAAUGACAUAGCUGUGGCAAAACUAAGCGGCCGCUGCUC | 0.296
ACAGAGCCCCCCUACACAGCAUACGUAGGAAAUCUACCUUUCAAUACGGUUCAGGGCGACACCGAUGCUAUCUUUAAGGAUCUCAGCAUAAGGAGUGUACGGCUAGUCAGAGACAAAGAC | 0.224
UACAAUGUAUUUGUGUAAUUUAUAGAAGUAAAAUCUAGAUGUUGAGACCUGUUUGGUCUAACCGAUGUGGAUACAGUUUAUUUUACUUGAAAUUUUGUUGUCUACUUUGUGUGUUUAACG | 0.658
GUGUUGGUACAGAGUGCUCUGUACCAGUGCUCAUCAUCCCUUCUUCAUACCAACGGUCCCCCGUUACCGGAAUUUAAUAUUUUUAAAAGUUUUACAUUGCUGUAUAUUCAAAGAUUUGUU | 1.7
UGGCAUACAGACCAGUUUUAGGACUGGUAAUCCAACAGGGACUUACCAGAACGGUUAUGACCGCACUCAGCAAUAUGGAAGUAAUGUUGCAAAUAUGCACAAUGGUAUGAACCAACAGGC | 0.107
UGGCGUUUCAGCAACAUGAAACAGUGGAAUGUCAACUGGGAAAUCAAAAUGGUCACCGCCGAGUUUGCAGAUGAAGUACGAUUGUCCUUCAUUUGUACUGAAGUAGAUUGCAAAGUGGUU | 0.26
